Published values pooled from the literature.
Numbered parts are unrelated; each lists some results of a single study.

Sample 1 — technique: RNA Bind-n-Seq; form: RNA; matrix: in vitro; tested at: 100 nM; relative to: input RNA pool; direction: higher = stronger binding
Target: RING finger protein unkempt homolog, zinc fingers 1-6, SBP tag (UNK, Homo sapiens, UniProt Q9C0B0, residues 30-357)
UniProt Q9C0B0, sequence (30-357, looked up): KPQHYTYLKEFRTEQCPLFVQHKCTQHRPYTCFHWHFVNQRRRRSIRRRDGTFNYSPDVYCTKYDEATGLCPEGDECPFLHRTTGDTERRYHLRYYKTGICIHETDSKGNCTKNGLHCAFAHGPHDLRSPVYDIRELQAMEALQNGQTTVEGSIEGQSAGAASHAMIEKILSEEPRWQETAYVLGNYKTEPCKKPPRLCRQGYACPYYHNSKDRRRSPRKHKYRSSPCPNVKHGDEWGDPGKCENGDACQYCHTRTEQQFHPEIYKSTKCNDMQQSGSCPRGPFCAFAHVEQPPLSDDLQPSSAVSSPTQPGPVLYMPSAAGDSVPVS
Setting: RNA with constant flanks, vertebrate orthologous sites, ends assumed
Shared flanks, not repeated: GGGAGUUCUACAGUCCGACGAUC … CAACAGAGGAUUGAGCAUCA
Oligonucleotide	bound/input enrichment [ratio]
CCCAUGGCUGCUUUGUAUUACCUCAGUGAGUUACAGCCCCCCUUGGCAUUUAGUUGGUACUAGAGCCAGUCAUCCUUAACAAAUCUUUUCACAUUUUAUUUCUUUCACACAUAGUCAUCU	4.31
CUACAAUAAUGAAAACCUACAGGAAUUUUUUUUUUAUUUUUCAUUUUCCCCUUAGACAUAGUUAGUCUUUUUCCCCCCAGGCAGAUCAUUCUGAGUGUGCGAGUGUGUGUGCACAUGUUA	2.71
CAUGUCCCUGUUACUGUGACAUUUAAAGUAUCCACAGUGCUCACUUUUUCCAAAUGAUUCUAGUAAUUGCCUAGAAAUAUAUUUCUCUUACCUGUUAUUUAUCAAUUUCCCCCCAGUAUU	1.63
GACCUCUUGAACUCCUAACUUUCGAGCUGUGGCUGUUUUUGAUACUGAUUUUAUUUUCUUUACGACUUUCCCAUUUCCUGCCUUCUCUCCUUCUGUUCCCAAGGCUUGGCUUGUGGAUGG	1.11
GUUGUUUUGUACAGGGGUUCUCUGUACUGAUUUGUUGUGGUUAUAAAACAAUUAGCAAAACAGCGGACAUCUGUAUUUAUUUUCUAUUCCAUUACCUCUCUGCUUCAUGUUUUUCCUUCU	0.992
AAGCUCUAGUUUCUAACAACUGACACCCUAAAAGAUUUAGAAAAGGUUUACAACACAAUCUAGUUUACGAAGAAAUCUUGUGCUAGAAUACUUUUUAAAGUAUUUUUGAAUACCAUUAAA	0.481
GAAAAUGGCUUCUGCUCUAUUAAAAAGUAAAAAUUGUCCUCCAAAUAUAAAACUCCUUAAUAGAUAUUUUUGAAAUUAGAAUCUUUAAAUUUUAUAAAUCAGCUGUUGCCACUACACAAC	4.46
CAUAAUCACUCUAAUUGUAAUCUGAUAAAGUGUAACAUUGUGUAGCCUUUUUGUAUAAAAUAGACAAAUAGAAAUGGUCCAAUUAGUUUCCUUUUUAAUAUGCUUAAAAUAAGCAGGUGG	2.43

Sample 2 — technique: protein binding microarray; form: double-stranded DNA, one strand shown; matrix: in vitro; tested at: not given; relative to: not given; direction: higher = stronger binding
Target: Histone acetyltransferase KAT6A, winged helix 1, GST fusion (KAT6A, Homo sapiens, UniProt Q92794, residues 1-85)
Setting: 8-mer, flanks averaged, mean of 2 arrays, mostly near background
Construct (chain): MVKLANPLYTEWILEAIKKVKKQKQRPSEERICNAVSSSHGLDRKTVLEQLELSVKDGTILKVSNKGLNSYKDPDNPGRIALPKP
Oligonucleotide	E-score
TTACAGAA	-0.198
CGCCAATC	-0.0234
CATCGATC	-0.11
AACAGCGA	-0.0191
ATTGCAAC	-0.113
AGTCGTTG	-0.0441
ACTGATCT	-0.194
GGTATGAA	-0.0471
AAAGAGCA	-0.0445
ACTTAGAG	-0.184
ACCAACGC	-0.0284
GTTCATAA	-0.147
GATCCCCA	-0.0957
ACCTGACC	-0.0571
CGTATAAG	0.128
ATTCCCGC	0.374
CAATGAAG	-0.197
CAAAGGGC	-0.128
AAGGGTCT	-0.03
ATAGAGCG	0.166
GCTGCGCA	0.248

Sample 3 — technique: RNA Bind-n-Seq; form: RNA; matrix: in vitro; tested at: 365 nM; relative to: no-protein control; direction: higher = stronger binding
Target: RNA binding protein fox-1 homolog 2, RRM domain, GST-SBP tag (RBFOX2, Homo sapiens, UniProt O43251-10, residues 100-194)
Setting: natural RNA segment, single round, ends assumed
Shared flanks, not repeated: GGGAGUUCUACAGUCCGACGAUC … UGGAAUUCUCGGGUGCCAA
Target sequence (chain): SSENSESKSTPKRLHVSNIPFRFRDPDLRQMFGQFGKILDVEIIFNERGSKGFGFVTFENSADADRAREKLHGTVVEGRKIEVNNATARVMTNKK
Oligonucleotide	RBNS enrichment (R)
UACGAGAUCUGUCUCUGCUGUUUAACUUCAUUGGAUUAAUCAGCUGGUUUCAACUCUACUGCGAAACAAAAAUAGCUCCUUAAAAGUACUGUUCUCCUUCAGUGGCAUGU	0.591
CUGUGGGGAGCAGCAUGGGCAAGGAAGACACAGACUCGCAUUACCCUUGGUCACUGUGAUUUCUGUUUUGUUUAAAAAAUUCUUACAAACCUCAGGAAAACUGUGCCCUC	0.724
UUUUACAUGUGAAUGAUUUUCUCAAAGAACAUAGAAAAGUCAAUAAAAUCCUCUUAAUUUCCACAUAUCACGUUUGGAUUUUCUUUUUUAAUUUGUUCUGAGAUUGACAA	0.443
GGUUUGAUGAACACGAUUAGGUACCCAGUGUGAUCCCACCCUCACCCCACCUCACCCAGAGCAAACCGUAGGACUGCUCCUAGAAGCAGCUCUGUUGACUUCUCUUGGAA	0.263
CUGCCUAGCUGACUGCUGCACAAGGCUGACUCUGGGCUCUACCCACCCUGCCUGAUGAGCCCUUCACUUUGUCCUCUUCCUGCCUCCUGGGCUCUGCCUUAAUCUCCUGG	0.88
CAUUGGCUCCAUCCCCUAGUCGCUGGACAGCUCUUUUUUUGAUUGGCUCAAAUCCUGUAAAGGGCUUGACCAGUCUCUACAUAGUCACCGUCCGCUUUUCCUGAGUUCUC	0.196
AGUCCCAGCUGAGGCACGAUAAUUGCUUGAACCCGGGGGGUGGAGGUUGCAGUGAGCUGAGAUUGCACCACUGUACUCCAACCUGGGCGACAGAGCAAGACUGUGUCUCA	0.336
UGCCCUUCAGAGCCAGUAGCAGGCAGGGGUGGGUAGGCACCCUCCUUCCUGUUUUUAUCUAAUAAAAUGCUAACCUGCCCUGAGUUUCCAUUACUGUGGGUGGGGUUCCC	0.394

Sample 4 — technique: protein-binding microarray; form: double-stranded DNA, one strand shown; matrix: in vitro; tested at: 250 nM; setting: 60-bp whole probe; added: salmon DNA 0.4 mg/ml; relative to: random background probes; direction: higher = stronger binding; shared flanks, not repeated: GCCTAGCAC … GTCTTGATTCGCTTGACGCTGCTG
Target: Interferon regulatory factor 5, full length, phosphomimetic (IRF5, Homo sapiens, UniProt Q13568-2, residues 1-514, K96S/S451D/S453D/S456D/S462D)
Oligonucleotide	log fluorescence [z-score]
GACGGTTTCGGACTGGTGACGTGCTAG	3.95
TTAGATTTCGGGTATCGATAAGTGCTA	7.57
TGTTTTTGCTTTCTTTATGCGTGCTAG	3
GACGGTTTCGACACTGGGGGCGTGCTA	5.45
GACGATATCAAACTGGAGACGTGCTAG	0.534
TTAGGACTCGACTATCGGTTAGTGCTA	6.52
TAAGATCTCAGTATCGATTAGTGCTAG	6.92
GACGGTATCTTTCTCCTGACGTGCTAG	0.936
TTAGATTTCGGGTATCGATGAGTGCTA	6.77
TAAGGTTTCGACTTTCGGTTAGTGCTA	10.3
TTAGGTTTCTTTTTCCTTTAGTGCTAG	2.1
TCAGTTTTCTCCATGGAACTGTGCTAG	1.2
GACGGTATCGGCCTCGGGACGTGCTAG	1.83
TCAATTATAACACTCTTACTGTGCTAG	0.464
CACTCTCTACATGTGTTTACGTGCTAG	0.453
TGTGCTTTCCTGATGACCCTGTGCTAG	0.214
TTAGAACTGGGGATTGGATTAGTGCTA	0.104
GGTAGGCGGGGCCCCTGGCCGTGCTAG	-1.06
TTAGATTTCGGGTTTCGAATAGTGCTA	6.23
